{"data": "Assay results of several laboratories", "note": "Each line is one published result; not all experiments were run side by side. Values joined by “and” are separate records of one study, mostly repeats; a detail may differ. ± marks the error that the study gave."}
{"SMILES": "CC(C)(C)[Si](C)(C)Oc1ccc(COC(=O)NNc2ccccc2)cc1", "test system": "PBS", "conditions": "12 h, 37 °C", "how to read": "relative to: initial amount", "measurement": "remaining fraction", "value": "0.95 and 0.97 and 0.98"}
{"SMILES": "O=C(NC1CCC(F)(F)CC1)C(c1cncnc1)N(C(=O)C(F)Cl)c1ccc(OC(F)(F)F)cc1 (stereo not shown)", "test system": "mouse liver microsomes", "conditions": "concentration not given, 0.75 h, pH 7.4", "measurement": "remaining compound", "value": "100%"}
{"SMILES": "CC[C@H](C)[C@@H](C(=O)N[C@@H](CC(C)C)C(=O)N[C@@H](CO)C(=O)N[C@@H](CO)C(=O)N[C@H](C(=O)N[C@@H](CCC(=O)O)C(=O)N[C@H](C(=O)NCC(=O)N[C@@H](CO)C(=O)NCC(=O)N[C@H](C(=O)N1C[C@H](O)C[C@H]1C(N)=O)[C@@H](C)O)C(C)C)[C@@H](C)O)N(C)C(=O)[C@H](C)NC(=O)CN(C)C(=O)[C@H](Cc1ccccc1)NC(=O)[C@H](CO)NC(=O)[C@H](CO)NC(=O)[C@H](CCCNC(=N)N)NC(=O)[C@H](CCC(N)=O)NC(=O)[C@H](CC(C)C)NC(=O)[C@H](Cc1ccccc1)NC(=O)[C@H](Cc1c[nH]cn1)NC(=O)[C@H](C)NC(=O)[C@H](CC(C)C)NC(=O)[C@H](CCCNC(=N)N)NC(=O)[C@H](CCC(N)=O)NC(=O)[C@@H](NC(=O)[C@H](C)NC(=O)[C@@H]1CSSC[C@H](NC(=O)[C@H](CCCNC(=N)N)NC(=O)CC[C@H](NC(=O)CCCCCCCCCCCCCCCCCCC(=O)O)C(=O)O)C(=O)N[C@@H](CC(N)=O)C(=O)N[C@@H]([C@@H](C)O)C(=O)N[C@@H](C)C(=O)N[C@@H]([C@@H](C)O)C(=O)N1)[C@@H](C)O", "test": "RP-HPLC", "test system": "water", "conditions": "7 days, pH 6.0, 40 °C", "measurement": "remaining main peak", "value": "95 area %"}
{"SMILES": "CSCC[C@@H](N)C(=O)N[C@@H](CC(C)C)C(=O)N[C@@H](CCCNC(=N)N)C(=O)N[C@@H](Cc1c[nH]c2ccccc12)C(=O)N[C@@H](CO)C(=O)N[C@@H](CCCNC(=N)N)C(=O)N[C@@H](CCCCN)C(=O)N[C@@H](CCSC)C(=O)N1CCC[C@H]1C(=O)N[C@@H](CS)C(=O)N[C@H](C(=O)N[C@@H](CO)C(=O)O)C(C)C", "test": "12G5 competition, SUP-T1 cells", "test system": "human plasma", "conditions": "20 µM, 2 h, 37 °C", "measurement": "remaining activity", "value": "68 ± 8%"}
{"SMILES": "C=CC(=O)Nc1cc(Nc2nccc(-c3cn(C)c4ccccc34)n2)c(OC)cc1N(C)CCNC", "test": "storage stability", "test system": "human dried blood spot", "conditions": "270 ng/mL, 5 h, -80 °C, HQC level", "measurement": "remaining amount", "value": "94.1%"}
{"SMILES": "CC(C)(C)[C@H](NC(=O)c1ccc(Oc2ccc(C(=O)N[C@H]3CCCC[C@@H]3O)cc2)cc1)C(=O)NCCN1CCCC1", "test system": "mouse liver microsomes", "conditions": "1 µM, 30 min, pH 7.4", "measurement": "remaining compound", "value": "84.3%"}
{"SMILES": "Cc1ccc(C(C)C)cc1.F[P-](F)(F)(F)(F)F.O=C(N=P(c1ccccc1)(c1ccccc1)c1ccccc1)c1ccccn1.[Cl-].[Ru+2]", "test system": "DMSO-d6", "conditions": "1 month", "measurement": "remaining intact compound", "value": "91%"}
{"SMILES": "CC[C@H](C)[C@@H](C(=O)N[C@@H](CC(C)C)C(=O)N[C@@H](CO)C(=O)N[C@@H](CO)C(=O)N[C@H](C(=O)N[C@@H](CCC(=O)O)C(=O)N[C@H](C(=O)NCC(=O)N[C@@H](CO)C(=O)N[C@@H](CC(N)=O)C(=O)N[C@H](C(=O)N1C[C@H](O)C[C@H]1C(N)=O)[C@@H](C)O)C(C)C)[C@@H](C)O)N(C)C(=O)[C@H](C)NC(=O)CN(C)C(=O)[C@H](Cc1ccccc1)NC(=O)[C@H](CO)NC(=O)[C@H](CO)NC(=O)[C@H](CCCNC(=N)N)NC(=O)[C@H](CCC(N)=O)NC(=O)[C@H](CC(C)C)NC(=O)[C@H](Cc1ccccc1)NC(=O)[C@H](CCCC(=O)O)NC(=O)[C@H](C)NC(=O)[C@H](CC(C)C)NC(=O)[C@H](CCCNC(=N)N)NC(=O)[C@H](CCC(=O)O)NC(=O)[C@@H](NC(=O)[C@H](C)NC(=O)[C@@H]1CSSC[C@H](NC(=O)[C@H](CCCNC(=N)N)NC(=O)CC[C@H](NC(=O)CCCCCCCCCCCCCCCCCCC(=O)O)C(=O)O)C(=O)NCC(=O)N[C@@H]([C@@H](C)O)C(=O)N[C@@H](C)C(=O)N[C@@H]([C@@H](C)O)C(=O)N1)[C@@H](C)O", "test": "RP-HPLC", "test system": "water", "conditions": "7 days, pH 7.5, 40 °C", "measurement": "remaining main peak", "value": "93 area %"}
{"SMILES": "Cc1ccc(C(C)C)cc1.O=C(N=P12CN3CN(CN(C3)C1)C2)c1[c-]cccc1.[Cl-].[Ru+2]", "test system": "DMSO-d6", "conditions": "1 month", "measurement": "remaining intact compound", "value": "6%"}
{"SMILES": "CC[C@H](C)[C@@H](C(=O)N[C@@H](CC(C)C)C(=O)N[C@@H](CO)C(=O)N[C@@H](CO)C(=O)N[C@H](C(=O)N[C@@H](CCC(=O)O)C(=O)N[C@H](C(=O)NCC(=O)N[C@@H](CO)C(=O)N[C@@H](CO)C(=O)N[C@H](C(=O)N1C[C@H](O)C[C@H]1C(N)=O)[C@@H](C)O)C(C)C)[C@@H](C)O)N(C)C(=O)[C@H](C)NC(=O)CN(C)C(=O)[C@H](Cc1ccccc1)NC(=O)[C@H](CO)NC(=O)[C@H](CO)NC(=O)[C@H](CCCNC(=N)N)NC(=O)[C@@H](NC(=O)[C@H](CC(C)C)NC(=O)[C@H](Cc1ccccc1)NC(=O)[C@H](Cc1c[nH]cn1)NC(=O)[C@H](C)NC(=O)[C@H](CC(C)C)NC(=O)[C@H](CCCNC(=N)N)NC(=O)[C@H](CCC(=O)O)NC(=O)[C@@H](NC(=O)[C@H](C)NC(=O)[C@@H]1CSSC[C@H](NC(=O)[C@H](CCCNC(=N)N)NC(=O)CC[C@H](NC(=O)CCCCCCCCCCCCCCCCCCC(=O)O)C(=O)O)C(=O)NCC(=O)N[C@@H]([C@@H](C)O)C(=O)N[C@@H](C)C(=O)N[C@@H]([C@@H](C)O)C(=O)N1)[C@@H](C)O)[C@@H](C)O", "test": "RP-HPLC", "test system": "water", "conditions": "7 days, pH 7.5, 40 °C", "measurement": "remaining main peak", "value": "87 area %"}
{"SMILES": "N=C(N)NCCC[C@@H]1NC(=O)[C@H](CCCNC(=N)N)NC(=O)[C@@H](CCCNC(=N)N)NC(=O)[C@@H](CCCNC(=N)N)NC(=O)[C@@H](C(c2ccccc2)c2ccccc2)NC(=O)[C@H](Cc2c[nH]c3ccccc23)NC(=O)[C@@H](C(c2ccccc2)c2ccccc2)NC1=O", "test": "LC-MS", "test system": "human plasma", "conditions": "24 h", "measurement": "remaining peptide", "value": "37.7%"}
{"SMILES": "O=C(NC1CCC(F)(F)CC1)C(c1cncnc1)N(C(=O)C(F)Cl)c1ccc(-c2cncs2)cc1 (stereo not shown)", "test system": "mouse liver microsomes", "conditions": "concentration not given, 0.5 h, pH 7.4", "measurement": "remaining compound", "value": "48.3%"}
{"SMILES": "CC[C@H](C)[C@@H](C(=O)N[C@@H](CC(C)C)C(=O)N[C@@H](CO)C(=O)N[C@@H](CO)C(=O)N[C@H](C(=O)N[C@@H](CCC(=O)O)C(=O)N[C@H](C(=O)NCC(=O)N[C@@H](CO)C(=O)N[C@@H](CO)C(=O)N[C@H](C(=O)N1C[C@H](O)C[C@H]1C(N)=O)[C@@H](C)O)C(C)C)[C@@H](C)O)N(C)C(=O)[C@H](C)NC(=O)CN(C)C(=O)[C@H](Cc1ccccc1)NC(=O)[C@H](CO)NC(=O)[C@H](CO)NC(=O)[C@H](CCCNC(=N)N)NC(=O)[C@H](CCC(N)=O)NC(=O)[C@H](CC(C)C)NC(=O)[C@H](Cc1ccccc1)NC(=O)[C@H](Cc1c[nH]cn1)NC(=O)[C@H](C)NC(=O)[C@H](CC(C)C)NC(=O)[C@H](CCCNC(=N)N)NC(=O)[C@H](CCC(=O)O)NC(=O)[C@@H](NC(=O)[C@H](C)NC(=O)[C@@H]1CSSC[C@H](NC(=O)[C@H](CCCNC(=N)N)NC(=O)CC[C@H](NC(=O)CCCCCCCCCCCCCCCCCCC(=O)O)C(=O)O)C(=O)NCC(=O)N[C@@H]([C@@H](C)O)C(=O)N[C@@H](C)C(=O)N[C@@H]([C@@H](C)O)C(=O)N1)[C@@H](C)O", "test": "RP-HPLC", "test system": "water", "conditions": "7 days, pH 7.5, 40 °C", "measurement": "remaining main peak", "value": "76 area %"}
{"SMILES": "C[C@](C(=O)NC1CCC(F)(F)CC1)(c1cncnc1)N(C(=O)[C@H](F)Cl)c1ccc(OC(F)(F)F)cc1", "test system": "mouse liver microsomes", "conditions": "concentration not given, 0.75 h, pH 7.4", "measurement": "remaining compound", "value": "16.5%"}
{"SMILES": "CC[C@H](C)[C@@H](C(=O)N[C@@H](CC(C)C)C(=O)N[C@@H](CO)C(=O)N[C@@H](CO)C(=O)N[C@H](C(=O)N[C@@H](CCC(=O)O)C(=O)N[C@H](C(=O)NCC(=O)N[C@@H](CO)C(=O)N[C@@H](CC(N)=O)C(=O)N[C@H](C(=O)N1CCC[C@H]1C(N)=O)[C@@H](C)O)C(C)C)[C@@H](C)O)N(C)C(=O)[C@H](C)NC(=O)CN(C)C(=O)[C@H](Cc1ccccc1)NC(=O)[C@H](CO)NC(=O)[C@H](CO)NC(=O)[C@H](CCCNC(=N)N)NC(=O)[C@H](Cc1c[nH]cn1)NC(=O)[C@H](CC(C)C)NC(=O)[C@H](Cc1ccccc1)NC(=O)[C@H](Cc1c[nH]cn1)NC(=O)[C@H](C)NC(=O)[C@H](CC(C)C)NC(=O)[C@H](CCCNC(=N)N)NC(=O)[C@H](CCC(=O)O)NC(=O)[C@@H](NC(=O)[C@H](C)NC(=O)[C@@H]1CSSC[C@H](NC(=O)[C@H](CCCNC(=N)N)NC(=O)CC[C@H](NC(=O)CCCCCCCCCCCCCCCCCCC(=O)O)C(=O)O)C(=O)NCC(=O)N[C@@H]([C@@H](C)O)C(=O)N[C@@H](C)C(=O)N[C@@H]([C@@H](C)O)C(=O)N1)[C@@H](C)O", "test": "RP-HPLC", "test system": "water", "conditions": "7 days, pH 6.0, 40 °C", "measurement": "remaining main peak", "value": "85 area %"}
{"SMILES": "CN(Cc1cc(C2CC2)on1)C(=O)c1cccc(-c2ccc(F)cc2)c1", "test system": "human liver microsomes", "conditions": "2 µM, 60 min, pH 7.5, without ABT", "measurement": "remaining compound", "value": "57.6%"}
{"note": "For quick reference, copied from above:"}
{"SMILES": "CSCC[C@@H](N)C(=O)N[C@@H](CC(C)C)C(=O)N[C@@H](CCCNC(=N)N)C(=O)N[C@@H](Cc1c[nH]c2ccccc12)C(=O)N[C@@H](CO)C(=O)N[C@@H](CCCNC(=N)N)C(=O)N[C@@H](CCCCN)C(=O)N[C@@H](CCSC)C(=O)N1CCC[C@H]1C(=O)N[C@@H](CS)C(=O)N[C@H](C(=O)N[C@@H](CO)C(=O)O)C(C)C", "test": "12G5 competition, SUP-T1 cells", "test system": "human plasma", "conditions": "20 µM, 2 h, 37 °C", "measurement": "remaining activity", "value": "68 ± 8%"}
